Measured values from different studies.
Lines come from different studies, so protocols differ.

COC[C@@H](c1ccc(C(F)(F)F)cc1)N1CCN(C2(C)CCN(C(=O)c3c(C)ncnc3C)CC2)C[C@@H]1C
central volume of distribution (human; dose not given, population PK model, with: ritonavir): 41.3 L

CN1CC[C@@H](NC(=O)Nc2ccc(C#N)cc2)C[C@@H]1c1nc2ccccc2[nH]1
central volume Vc/F (human cancer patients, plasma; oral, dose not given, population PK base model): 3.27 L

NC(N)=NCCC[C@@H](N)C(=O)N[C@@H](CCCN=C(N)N)C(=O)N1CCC[C@H]1C(=O)N1C[C@H](O)C[C@H]1C(=O)NCC(=O)N[C@@H](Cc1cccs1)C(=O)N[C@@H](CO)C(=O)N1Cc2ccccc2C[C@@H]1C(=O)N1[C@H](C(=O)N[C@@H](CCCN=C(N)N)C(=O)O)C[C@@H]2CCCC[C@@H]21
central volume (Vc/F) (popPK full model bootstrap median; human; subcutaneous, dose not given): 20.5 L

Cn1cnc2c(F)c(Nc3ccc(Br)cc3Cl)c(C(=O)NOCCO)cc21
central volume of distribution (human, plasma; oral, dose not given, nonlinear absorption): 40 L

NC(=O)c1cnc2[nH]ccc2c1N[C@@H]1[C@@H]2CC3C[C@H]1C[C@@](O)(C3)C2
central volume (healthy human volunteers, plasma; oral, dose not given, population PK model estimate): 253 L

Cc1cn(-c2cc(NC(=O)c3ccc(C)c(Nc4nccc(-c5cccnc5)n4)c3)cc(C(F)(F)F)c2)cn1
central volume of distribution (V1) (population PK model, typical value; human, plasma; oral, dose not given, fasted state): 551 L

C[C@@]1(Cl)[C@H](O)[C@@H](CO)O[C@H]1n1ccc(=O)[nH]c1=O
central volume of distribution (human; dose not given): 3.92 L

CN(CCC#N)C1CCN(C(=O)Cn2cc(NC(=O)c3cnn4cccnc34)c(-c3cc(Cl)ccc3OC(F)F)n2)CC1
central to peripheral ratio (gamma scintigraphy; human, right lung; inhalation): 0.58

N#CCNC(=O)c1ccc(-c2ccnc(Nc3ccc(N4CCOCC4)cc3)n2)cc1
central volume fraction (population PK model, NONMEM; human, plasma; oral, dose not given, typical value, final model): 0.289

Excerpt of the above:
COC[C@@H](c1ccc(C(F)(F)F)cc1)N1CCN(C2(C)CCN(C(=O)c3c(C)ncnc3C)CC2)C[C@@H]1C
central volume of distribution (human; dose not given, population PK model, with: ritonavir): 41.3 L
